Measured values collected from several papers.
Compare with care: the assays were run in different laboratories. ± gives the spread as reported.

SMILES	tested on	assay	test system	setting	measurement	value
Cc1cc(O)c(=O)c(O)cc1-c1cccc2ccccc12	Hepatitis B virus	viral replication, inhibitor, qPCR	HepDES19		EC50	2300 nM
Nc1nc(Nc2ccc(Cl)c(Cl)c2)nn1S(=O)(=O)c1ccc2ccccc2c1	dengue virus	viral replication	Huh-7, New Guinea C		EC50	4300 nM
O=C(CCN(CCC(=O)N[C@@H](Cc1c[nH]c2ccccc12)C(=O)O)C(=O)CCN(CCC(=O)N(CCC(=O)N[C@@H](Cc1c[nH]c2ccccc12)C(=O)O)CCC(=O)N[C@@H](Cc1c[nH]c2ccccc12)C(=O)O)C(=O)CCC(CCC(=O)N(CCC(=O)N(CCC(=O)N[C@@H](Cc1c[nH]c2ccccc12)C(=O)O)CCC(=O)N[C@@H](Cc1c[nH]c2ccccc12)C(=O)O)CCC(=O)N(CCC(=O)N[C@@H](Cc1c[nH]c2ccccc12)C(=O)O)CCC(=O)N[C@@H](Cc1c[nH]c2ccccc12)C(=O)O)(CCC(=O)N(CCC(=O)N(CCC(=O)N[C@@H](Cc1c[nH]c2ccccc12)C(=O)O)CCC(=O)N[C@@H](Cc1c[nH]c2ccccc12)C(=O)O)CCC(=O)N(CCC(=O)N[C@@H](Cc1c[nH]c2ccccc12)C(=O)O)CCC(=O)N[C@@H](Cc1c[nH]c2ccccc12)C(=O)O)[N+](=O)[O-])N[C@@H](Cc1c[nH]c2ccccc12)C(=O)O	respiratory syncytial virus	viral replication	HeLa cells, Long		EC50	11000 ± 180 nM
O=C1NC2(CC2)COc2ncc(F)cc2[C@H]2COCCN2c2ccn3ncc1c3n2			Sprague-Dawley rat, female, ovaries	oral, 10 mg/kg/day, 4 weeks dosing, end of recovery	organ-to-body weight ratio	0.036 ± 0.005%
COc1ccc(Nc2ncnc3ccc(-c4ccc(S(=O)(=O)N5CCN(C)CC5)cc4)cc23)cc1Cl	Trypanosoma cruzi	intracellular amastigote growth, β-galactosidase CPRG	3T3, Tulahuen, β-galactosidase-expressing	96 h	EC50	> 50000 nM
Nc1nc(Nc2ccc(Cl)cc2)nn1S(=O)(=O)c1ccc2ccccc2c1	Usutu virus	viral replication	Vero 76, TC-508		EC50	6400 nM
Cc1cc(O)c(=O)c(O)cc1S(=O)(=O)c1ccccc1	Hepatitis B virus	viral replication, inhibitor, qPCR	HepDES19		EC50	400 nM
CON(C(=O)c1cn(C)nc1C(F)F)C(C)Cc1c(Cl)cc(Cl)cc1Cl (stereo not shown)	Alternaria alternata	mycelial growth		12 h	EC50	0.255 µg/mL
C[C@H](NC(=O)Cc1cc(F)cc(F)c1)C(=O)N[C@@H]1C(=O)N(C)c2ccccc2-c2ccccc21	Zika virus	viral replication	Huh-7.5.1, nanoluciferase reporter	48 h	EC50	262 nM
CCc1nn(C)c2nc(-c3ccc(C(=O)O)cc3)nc(NCc3ccccc3)c12	Cryptosporidium parvum	parasite growth, immunofluorescence microscopy	HCT-8, Iowa	48 h post infection, compound added at 3 h	EC50	860 nM
CN1CCN(S(=O)(=O)c2ccc(-c3ccc4ncnc(Nc5ccc(F)cc5)c4c3)cc2)CC1	Trypanosoma cruzi	intracellular amastigote growth, β-galactosidase CPRG	3T3, Tulahuen, β-galactosidase-expressing	96 h	EC50	> 50000 nM
COc1ccccc1-c1n[nH]c2nc(N[C@H]3CC[C@H](NS(=O)(=O)CC(C)C)CC3)ncc12	Leishmania donovani	cell growth	promastigotes, LdBOB CRK6 single knockout		EC50	0.55 ± 0.001 nM
CN1CCN(S(=O)(=O)c2ccc(-c3ccc4ncnc(Nc5ccc(OCc6ccccc6)cc5)c4c3)cc2)CC1	Trypanosoma cruzi	intracellular amastigote growth, β-galactosidase CPRG	3T3, Tulahuen, β-galactosidase-expressing	96 h	EC50	9900 nM
CCOC(=O)c1cc(O)c(=O)c(O)cc1C	Hepatitis B virus	viral replication, inhibitor, qPCR	HepDES19		EC50	4300 nM
O=C(c1ccc(-c2ccc3ncnc(Nc4ccc(OCc5cccc(F)c5)c(Cl)c4)c3c2)cc1)N1CCCCC1	Trypanosoma cruzi	intracellular amastigote growth, β-galactosidase CPRG	3T3, Tulahuen, β-galactosidase-expressing	96 h	EC50	> 50000 nM
COc1cc(NC(C(=O)N2CCc3ccc(OC(F)(F)F)cc32)c2ccc(Cl)cc2)cc(OCCCC(=O)O)c1 (stereo not shown)	Zika virus	viral replication	Huh-7.5.1, nanoluciferase reporter	48 h	EC50	> 10000 nM
Fc1cccc(COc2ccc(Nc3ncnc4ccc(-c5cccc(CN6CCOCC6)c5)cc34)cc2Cl)c1	Trypanosoma cruzi	intracellular amastigote growth, β-galactosidase CPRG	3T3, Tulahuen, β-galactosidase-expressing	96 h	EC50	2400 nM
O=c1c(O)ccccc1O	Hepatitis B virus	viral replication, inhibitor, qPCR	HepDES19		EC50	1700 nM
CCC1(CC)CC(=O)N(C2c3cc(C(=O)NC4c5ccccc5CC4O)ccc3OC2(C)COC)C(=N)N1 (stereo not shown)	Plasmodium falciparum	parasite growth	Dd2-ATV		EC50	0.3 nM
O=S(=O)(c1ccc(-c2ccc3ncnc(Nc4ccc(OCc5cccc(F)c5)c(Cl)c4)c3c2)cc1)N1CCNCC1	Trypanosoma cruzi	intracellular amastigote growth, β-galactosidase CPRG	3T3, Tulahuen, β-galactosidase-expressing	96 h	EC50	790 nM
CC(=O)c1c(C)cc(O)c(=O)c(O)c1Br	Hepatitis B virus	viral replication, inhibitor, qPCR	HepDES19		EC50	3000 nM
CC(=O)CCC1C(=O)NC(C(C)C)C(=O)NC(Cc2cc(O)cc(F)c2)C(=O)N2CCCC(N2)C(=O)OC(C(C)=CC=CC(=O)N2CCCCO2)CC=CC=CC(O)C(C)C1O (stereo not shown)	Hepatitis C virus	viral replication	Huh7, Con1 replicon	5% human serum	EC50	11 ± 2 nM

Excerpt of the above:
SMILES	tested on	assay	test system	setting	measurement	value
Cc1cc(O)c(=O)c(O)cc1S(=O)(=O)c1ccccc1	Hepatitis B virus	viral replication, inhibitor, qPCR	HepDES19		EC50	400 nM
CON(C(=O)c1cn(C)nc1C(F)F)C(C)Cc1c(Cl)cc(Cl)cc1Cl (stereo not shown)	Alternaria alternata	mycelial growth		12 h	EC50	0.255 µg/mL
C[C@H](NC(=O)Cc1cc(F)cc(F)c1)C(=O)N[C@@H]1C(=O)N(C)c2ccccc2-c2ccccc21	Zika virus	viral replication	Huh-7.5.1, nanoluciferase reporter	48 h	EC50	262 nM
